# Measurements of several laboratories.
# Compare with care: the assays were run in different laboratories. ± gives the spread as reported.
# Organism: Mycobacterium tuberculosis
SMILES,test,test system,setting,how to read,quantity,value
O=C(NC1CC1)c1cc(-c2ccoc2)ccc1OCCc1cccc(F)c1,growth,H37Rv-LP,120 h,,IC90,4 ± 3.2 µM
N#CN=c1[nH]c2ccc(Cl)cc2c(=O)n1Cc1cccnc1,,PptT conditional knockdown,,,MIC90,24 µM
Cc1ccc(NC(=O)c2sc3nc(C)cc(C(F)(F)F)c3c2N)cc1,growth inhibition,H37Rv LepB under-expressing,,,IC50,> 100 µM
N#Cc1cncc(Cn2c(=S)[nH]c3ccc(Cl)cc3c2=O)c1,,PptT conditional knockdown,,,MIC90,0.39 µM
CO[C@H]1/C=C/O[C@@]2(C)Oc3c(C)c(O)c4c(O)c(c(/C=N/N5CCN(C)CC5)c(O)c4c3C2=O)NC(=O)/C(C)=C\C=C\[C@H](C)[C@H](O)[C@@H](C)[C@@H](O)[C@@H](C)[C@H](OC(C)=O)[C@@H]1C,,W4,120 h,,MIC50,< 0.005 µM
Cc1cscc1-c1ccc(OCCc2cc(F)cc(F)c2)c(C(N)=O)c1,growth,H37Rv-LP,120 h,,IC90,0.62 ± 0.05 µM
Cc1c(-c2ccc(N3CCCCC3)cc2)[nH]c2ccccc2c1=O,bacterial growth,H37Rv,"Wayne model, oxygen-limited",,IC50,3.9 ± 0.52 µM
CCN(CC)C(=O)c1sc2ncccc2c1N,growth inhibition,H37Rv LepB under-expressing,,,IC50,> 100 µM
C#Cc1ccc(OCCc2cccc(F)c2)c(C(N)=O)c1,,H37Rv-LP,,baseline: HepG2 CC50 over Mtb IC90,selectivity index,3
CO[C@H]1/C=C/O[C@@]2(C)Oc3c(C)c(O)c4c(O)c(c(/C=N/N5CCN(C)CC5)c(O)c4c3C2=O)NC(=O)/C(C)=C\C=C\[C@H](C)[C@H](O)[C@@H](C)[C@@H](O)[C@@H](C)[C@H](OC(C)=O)[C@@H]1C,resazurin reduction,H37Rv mc2-6206 wild type,,,MIC80,0.076 µM
Cc1ccc2[nH]c(=S)n(Cc3cccnc3)c(=O)c2c1,,PptT conditional knockdown,,,MIC90,2.5 µM
NC(=O)c1cc(F)ccc1OCCc1cccc(F)c1,growth,H37Rv-LP,120 h,,IC90,68 ± 11 µM
COc1ccc(-c2cc(C(F)(F)F)c3c(N)c(C(=O)Nc4cccc(C)c4C)sc3n2)cc1,growth inhibition,H37Rv LepB under-expressing,,,IC50,0.58 ± 0.2 µM
CC(C)C(=O)OCc1cc2[nH]c(=S)n(Cc3cccnc3)c(=O)c2cc1Cl,,PptT conditional knockdown,,,MIC90,0.46 µM
COc1ccc(-c2cc(C(F)(F)F)c3c(N)c(C(=O)NCCSC)sc3n2)cc1,growth inhibition,H37Rv LepB under-expressing,,,IC50,17 ± 9 µM
CN1CCN(c2ccc(Nc3nccc(-c4ccc([N+](=O)[O-])cc4)n3)cc2C(F)(F)F)CC1,,H37Rv auxotrophic strain,,,MIC,13.8 µg/mL
N#Cc1cncc(Cn2c(=S)[nH]c3cc(CO)c(Cl)cc3c2=O)c1,,PptT conditional knockdown,,,MIC90,0.292 µM
COc1ccc(-c2cc(C(F)(F)F)c3c(N)c(C(=O)N4CCCC4)sc3n2)cc1,growth inhibition,H37Rv LepB under-expressing,,,IC50,> 50 µM
Cc1cnc(OCCc2cccc(F)c2)c(C(N)=O)c1,,H37Rv-LP,,baseline: HepG2 CC50 over Mtb IC90,selectivity index,1
COc1ccc(-c2cc(C(F)(F)F)c3c(N)c(C(=O)Nc4ccc(C)c(C)c4)sc3n2)cc1,,H37Rv wild type,120 h,,IC90,inactive
N#Cc1cc2[nH]c(=S)n(Cc3cccnc3)c(=O)c2cc1Cl,,PptT conditional knockdown,,,MIC90,0.42 µM
COc1ccc(-c2cc(C(F)(F)F)c3c(N)c(C(=O)N4CC(OC)C4)sc3n2)cc1,,H37Rv wild type,,baseline: HepG2 IC50 over M. tuberculosis IC90,selectivity index,< 1
Cc1ccc(OCCc2cc(F)cc(F)c2)c(C(=O)N(C)C)c1,,H37Rv-LP,,baseline: HepG2 CC50 over Mtb IC90,selectivity index,2

# Excerpt of the above:
SMILES,test,test system,setting,how to read,quantity,value
Cc1ccc2[nH]c(=S)n(Cc3cccnc3)c(=O)c2c1,,PptT conditional knockdown,,,MIC90,2.5 µM
NC(=O)c1cc(F)ccc1OCCc1cccc(F)c1,growth,H37Rv-LP,120 h,,IC90,68 ± 11 µM
COc1ccc(-c2cc(C(F)(F)F)c3c(N)c(C(=O)Nc4cccc(C)c4C)sc3n2)cc1,growth inhibition,H37Rv LepB under-expressing,,,IC50,0.58 ± 0.2 µM
